Earlier results, collected from citations in different studies.
Compare with care: the assays were run in different laboratories. Numbers after ± are the reported error. Non-standard residues stand in square brackets, D forms with d. No end group written: not given here. [ ]: non-standard residue; d: D form.
B1: CCL1; sequence looked up; chain KSMQVPFSRCCFSFAEQEIPLRAILCYRNTSSICSNEGLIFKLKRGKEACALDTVGWVQRHRKMLRHCPSKRK
UniProt P45481, sequence (whole entry, looked up): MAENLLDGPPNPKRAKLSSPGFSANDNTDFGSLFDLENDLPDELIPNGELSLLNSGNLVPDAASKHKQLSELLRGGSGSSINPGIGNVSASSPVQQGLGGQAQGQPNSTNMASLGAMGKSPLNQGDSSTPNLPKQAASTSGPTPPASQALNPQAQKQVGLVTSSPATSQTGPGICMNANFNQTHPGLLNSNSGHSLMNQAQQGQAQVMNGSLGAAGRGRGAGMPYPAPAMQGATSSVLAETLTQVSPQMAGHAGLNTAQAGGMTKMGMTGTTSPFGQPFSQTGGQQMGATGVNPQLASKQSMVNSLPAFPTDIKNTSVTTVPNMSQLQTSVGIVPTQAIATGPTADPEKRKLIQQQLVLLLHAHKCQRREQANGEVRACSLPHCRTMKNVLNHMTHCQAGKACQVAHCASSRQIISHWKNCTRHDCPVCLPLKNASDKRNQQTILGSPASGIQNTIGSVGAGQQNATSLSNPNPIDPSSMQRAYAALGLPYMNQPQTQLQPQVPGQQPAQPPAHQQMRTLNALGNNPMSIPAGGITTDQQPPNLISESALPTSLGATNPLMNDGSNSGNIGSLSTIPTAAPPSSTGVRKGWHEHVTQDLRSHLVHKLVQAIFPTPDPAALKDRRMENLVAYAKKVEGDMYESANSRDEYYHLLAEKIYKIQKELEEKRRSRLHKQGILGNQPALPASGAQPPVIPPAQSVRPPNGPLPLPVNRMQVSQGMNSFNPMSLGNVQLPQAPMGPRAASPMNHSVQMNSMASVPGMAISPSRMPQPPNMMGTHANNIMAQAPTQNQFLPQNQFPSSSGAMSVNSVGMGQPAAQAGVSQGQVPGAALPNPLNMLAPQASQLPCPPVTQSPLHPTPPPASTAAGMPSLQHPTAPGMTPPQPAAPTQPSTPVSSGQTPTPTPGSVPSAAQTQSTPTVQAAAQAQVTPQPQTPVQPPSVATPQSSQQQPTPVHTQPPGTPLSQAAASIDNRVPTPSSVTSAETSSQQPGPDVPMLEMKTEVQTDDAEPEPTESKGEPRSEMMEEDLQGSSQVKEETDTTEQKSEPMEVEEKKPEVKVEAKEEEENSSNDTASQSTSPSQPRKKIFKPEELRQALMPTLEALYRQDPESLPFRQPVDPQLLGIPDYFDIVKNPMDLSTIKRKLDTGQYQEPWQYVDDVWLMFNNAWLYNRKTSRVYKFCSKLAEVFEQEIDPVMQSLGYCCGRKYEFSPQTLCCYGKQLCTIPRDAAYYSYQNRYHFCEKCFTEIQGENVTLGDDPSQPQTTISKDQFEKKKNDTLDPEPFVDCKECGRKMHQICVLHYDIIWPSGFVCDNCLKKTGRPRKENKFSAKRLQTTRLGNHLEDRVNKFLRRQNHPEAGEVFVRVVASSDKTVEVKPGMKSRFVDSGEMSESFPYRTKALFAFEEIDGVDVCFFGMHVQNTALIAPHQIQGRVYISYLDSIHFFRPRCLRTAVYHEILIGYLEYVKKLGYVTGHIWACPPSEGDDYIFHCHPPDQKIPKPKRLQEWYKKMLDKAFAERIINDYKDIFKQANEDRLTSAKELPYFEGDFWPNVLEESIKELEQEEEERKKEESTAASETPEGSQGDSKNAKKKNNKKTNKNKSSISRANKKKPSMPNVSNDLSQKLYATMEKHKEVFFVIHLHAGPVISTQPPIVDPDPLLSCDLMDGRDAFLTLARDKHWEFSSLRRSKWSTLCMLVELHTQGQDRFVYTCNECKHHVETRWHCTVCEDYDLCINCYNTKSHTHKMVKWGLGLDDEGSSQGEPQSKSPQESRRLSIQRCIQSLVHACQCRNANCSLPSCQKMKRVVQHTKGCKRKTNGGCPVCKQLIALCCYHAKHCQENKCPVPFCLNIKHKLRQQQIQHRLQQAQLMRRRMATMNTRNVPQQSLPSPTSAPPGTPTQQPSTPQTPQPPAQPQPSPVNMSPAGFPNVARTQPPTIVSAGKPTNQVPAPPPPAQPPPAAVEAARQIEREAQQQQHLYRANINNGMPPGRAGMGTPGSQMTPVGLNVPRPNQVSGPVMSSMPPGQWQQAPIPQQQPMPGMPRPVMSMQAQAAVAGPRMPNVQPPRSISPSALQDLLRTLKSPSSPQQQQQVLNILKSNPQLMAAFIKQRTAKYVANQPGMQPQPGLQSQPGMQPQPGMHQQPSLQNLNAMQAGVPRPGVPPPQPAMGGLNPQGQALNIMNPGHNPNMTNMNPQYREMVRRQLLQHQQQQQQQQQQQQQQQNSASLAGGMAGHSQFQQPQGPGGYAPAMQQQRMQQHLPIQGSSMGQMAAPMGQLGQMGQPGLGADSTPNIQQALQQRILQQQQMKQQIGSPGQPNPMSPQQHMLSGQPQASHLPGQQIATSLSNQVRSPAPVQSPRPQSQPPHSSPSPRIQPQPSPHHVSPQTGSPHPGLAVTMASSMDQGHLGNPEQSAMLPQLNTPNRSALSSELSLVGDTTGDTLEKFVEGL
UniProt Q99967, sequence (whole entry, looked up): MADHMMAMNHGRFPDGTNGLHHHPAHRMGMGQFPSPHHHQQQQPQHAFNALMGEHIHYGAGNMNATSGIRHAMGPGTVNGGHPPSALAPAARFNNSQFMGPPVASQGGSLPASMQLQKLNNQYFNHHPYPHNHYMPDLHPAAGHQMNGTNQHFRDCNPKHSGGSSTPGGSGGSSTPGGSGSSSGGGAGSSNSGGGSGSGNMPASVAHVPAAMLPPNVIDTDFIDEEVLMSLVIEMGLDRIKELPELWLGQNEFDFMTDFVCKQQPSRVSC
UniProt P04191, sequence (whole entry, looked up): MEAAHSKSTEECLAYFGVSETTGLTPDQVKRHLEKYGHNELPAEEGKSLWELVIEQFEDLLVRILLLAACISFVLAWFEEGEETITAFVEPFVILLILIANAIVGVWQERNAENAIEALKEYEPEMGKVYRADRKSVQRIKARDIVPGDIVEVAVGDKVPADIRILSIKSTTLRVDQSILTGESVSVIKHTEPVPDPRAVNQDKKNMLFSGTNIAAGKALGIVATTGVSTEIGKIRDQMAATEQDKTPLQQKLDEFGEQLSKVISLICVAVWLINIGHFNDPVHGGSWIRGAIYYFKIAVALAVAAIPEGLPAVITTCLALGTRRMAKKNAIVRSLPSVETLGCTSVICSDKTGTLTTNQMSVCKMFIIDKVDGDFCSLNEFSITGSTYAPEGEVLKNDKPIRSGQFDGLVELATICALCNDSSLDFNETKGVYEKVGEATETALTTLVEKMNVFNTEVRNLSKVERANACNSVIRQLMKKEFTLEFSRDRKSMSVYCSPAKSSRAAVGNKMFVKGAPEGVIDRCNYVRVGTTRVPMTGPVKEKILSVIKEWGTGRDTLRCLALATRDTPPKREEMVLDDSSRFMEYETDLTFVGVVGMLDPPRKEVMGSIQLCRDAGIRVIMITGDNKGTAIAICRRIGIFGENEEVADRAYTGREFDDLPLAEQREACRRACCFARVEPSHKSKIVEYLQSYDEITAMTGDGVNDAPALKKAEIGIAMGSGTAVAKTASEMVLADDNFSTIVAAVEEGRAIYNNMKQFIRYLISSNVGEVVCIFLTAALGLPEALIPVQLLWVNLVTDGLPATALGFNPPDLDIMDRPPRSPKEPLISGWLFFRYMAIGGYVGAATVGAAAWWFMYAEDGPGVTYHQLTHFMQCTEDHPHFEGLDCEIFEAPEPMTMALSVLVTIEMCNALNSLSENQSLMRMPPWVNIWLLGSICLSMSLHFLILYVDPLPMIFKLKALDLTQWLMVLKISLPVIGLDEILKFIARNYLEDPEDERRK

Substance	target or system	assay	system	setting	measurement	value
colistin sulfate	Staphylococcus aureus	–	–	–	MIC	1 µg/mL
capreomycin	Mycolicibacterium smegmatis	–	mc2155	literature value	MIC	0.25 µg/mL
KQKTLKKVWKLSEKVLIFASAFAKKAGAAEATLVL	Bacillus subtilis	–	peptide, ATCC 23857	–	MIC	45 µM
indirubin-3'-monoxime	–	regression of existing vessels	zebrafish embryos	–	IC50	> 30 µM
heparin	Plasmodium falciparum	erythrocyte invasion	merozoites	–	IC50	11 µg/mL
sodium rutin sulfate	herpes simplex virus	viral replication	–	–	IC50	88.3 µM
R[dW][dF]I[dF]H-NH2 (Arg-D-Trp-D-Phe-Ile-D-Phe-His-NH2)	Candida albicans	–	–	–	IC50	6.8 µM
ifinatamab deruxtecan	–	–	patients with advanced solid tumours	dose not given, mCRPC cohort	objective response rate	33%
Nisin	Acanthamoeba castellanii	–	trophozoites	24 h	IC50	4500 µg/mL
H-[Orn][Orn]WW-NH2 (ornithine, C-amide; Orn = NCCC[C@H](N)C(=O)O)	Zygosaccharomyces bailii	–	–	–	growth inhibitory concentration	12.5 µM
MWIWKKPRWKGRRLKKKEEKEELGDYIYLYCKVKVRLFGFLPYFISKTA	Bacillus subtilis	–	peptide	–	MIC	6.3 µM
sarcolipin	Sarcoplasmic/endoplasmic reticulum calcium ATPase 1 (ATP2A1, Oryctolagus cuniculus, UniProt P04191)	enzyme activity	–	–	Vmax	2.9 ± 0.1 µmol/min/mg
CITED2 CTAD (Homo sapiens, UniProt Q99967)	CBP TAZ1 domain (Mus musculus, UniProt P45481)	fluorescence anisotropy	–	–	Kd	0.01 µM
colistin	Escherichia coli	–	–	–	MIC	0.2 µg/mL
RGTCYNRVGLIIRNFSKLKGKKV	Staphylococcus aureus	–	peptide, ATCC 6538	–	MIC	17 µM
nosiheptide	Staphylococcus aureus	–	MRSA, various strains	range	MIC	0.03 to 0.125 µg/mL
pegcetacoplan	–	–	human	90 mg/day for 28 days (1.29 mg/kg), arithmetic mean	Cmax	259 µg/mL
B1 (CCL1)	CCR8 L258A mutant	IP accumulation, agonist	–	–	EC50	0.027 µM

A few entries again:
Substance	target or system	assay	system	setting	measurement	value
nosiheptide	Staphylococcus aureus	–	MRSA, various strains	range	MIC	0.03 to 0.125 µg/mL
